{"data": "Results from different studies", "cell line": "Vero", "note": "Compare with care: the assays were run in different laboratories."}
{"SMILES": "CC(=O)OC[C@H]1O[C@@H](NC(=O)NC(=O)[C@@H](C)Cc2ccc(C(C)C)cc2)[C@H](OC(C)=O)[C@@H](OC(C)=O)[C@@H]1OC(C)=O", "measurement": "minimum cytotoxic concentration", "value": "> 100 µM"}
{"SMILES": "O=C(/C=C/c1ccccc1)c1cc2ccccc2oc1=O", "test": "MTT", "conditions": "up to 100 µg/mL, 48 h", "measurement": "viability", "value": "> 80%"}
{"SMILES": "O=c1[nH]c(=O)c2cccc(O)c2o1", "test": "cytotoxicity", "conditions": "up to 50 µg/mL", "measurement": "IC50", "value": "inactive"}
{"SMILES": "CC(C)(C)[Si](C)(C)OC[C@H]1O[C@@H](n2cc(I)c(=O)[nH]c2=O)[C@H](I)[C@@H](O[Si](C)(C)C(C)(C)C)[C@@H]1O[Si](C)(C)C(C)(C)C", "test": "MTT", "conditions": "concentration not given", "measurement": "cytotoxicity", "value": "toxic"}
{"SMILES": "COc1cc(O)c2c(=O)c3c(O)c(-c4c(C)cc5c(c4O)C(=O)C4=C(O)C[C@H](OC)[C@@H](O)[C@]4(C)O5)c(C)cc3oc2c1OC", "test": "cytotoxicity", "conditions": "4 d", "measurement": "IC50", "value": "21.6 µM"}
{"SMILES": "NC(=O)c1ccc[n+](-c2ccccc2)c1", "test": "cell growth or viability", "conditions": "25 µM, 72 h", "measurement": "viability", "value": "> 80%"}
{"SMILES": "CC(C)(C)[Si](C)(C)OC[C@H]1O[C@@H](n2ccc(=O)[nH]c2=O)[C@H](I)[C@@H](O[Si](C)(C)C(C)(C)C)[C@@H]1O[Si](C)(C)C(C)(C)C", "test": "MTT", "conditions": "concentration not given", "measurement": "cytotoxicity", "value": "toxic"}
{"SMILES": "CO[C@H]1CC(O)=C2C(=O)c3c(cc(C)c(-c4c(C)cc5c(c4O)C(=O)C4=C(O)C[C@H](OC)[C@@H](O)[C@]4(C)O5)c3O)O[C@@]2(C)[C@@H]1O", "test": "cytotoxicity", "conditions": "4 d", "measurement": "IC50", "value": "4.7 µM"}
{"SMILES": "Cc1nc2ccccc2n1CC(=O)NO", "conditions": "100 µM, 24 h", "measurement": "cytotoxicity", "value": "not toxic"}
{"SMILES": "CC[C@H](C)[C@H](NC(=O)[C@H](CC(C)C)NC(=O)CNC(=O)[C@H](CCCCN)NC(=O)[C@@H](NC(=O)[C@@H](NC(=O)[C@H](CC(N)=O)NC(=O)[C@H](Cc1c[nH]c2ccccc12)NC(=O)[C@@H](NC(=O)[C@H](CCC(=O)O)NC(=O)CNC(=O)[C@H](Cc1c[nH]c2ccccc12)NC(=O)[C@@H](N)CC(C)C)[C@@H](C)CC)[C@@H](C)O)C(C)C)C(N)=O", "test": "MTT", "conditions": "10 µg/mL, 48 h", "measurement": "viability", "value": "> 95%"}
{"SMILES": "O=C1/C(=N\\NC(=S)NN=Cc2cccs2)c2ccccc2N1Cc1ccccc1", "test": "cell morphology", "measurement": "minimum cytotoxic concentration", "value": "100 µM"}
{"SMILES": "O=C(Cc1csc2nc(-c3ccc(Br)cc3)cn12)NN=C1CCCC1", "test": "microscopy of cell morphology", "measurement": "minimum cytotoxic concentration", "value": "≥ 100 µg/mL"}
{"note": "A few entries again:"}
{"SMILES": "NC(=O)c1ccc[n+](-c2ccccc2)c1", "test": "cell growth or viability", "conditions": "25 µM, 72 h", "measurement": "viability", "value": "> 80%"}
{"SMILES": "CC(C)(C)[Si](C)(C)OC[C@H]1O[C@@H](n2ccc(=O)[nH]c2=O)[C@H](I)[C@@H](O[Si](C)(C)C(C)(C)C)[C@@H]1O[Si](C)(C)C(C)(C)C", "test": "MTT", "conditions": "concentration not given", "measurement": "cytotoxicity", "value": "toxic"}
